Published values from different studies.
Numbered parts are unrelated; each lists some results of a single study. Several values in a cell are separate wells, animals, samples, runs or records.
Chain of UniProt P10721 (whole entry, unmodified, looked up): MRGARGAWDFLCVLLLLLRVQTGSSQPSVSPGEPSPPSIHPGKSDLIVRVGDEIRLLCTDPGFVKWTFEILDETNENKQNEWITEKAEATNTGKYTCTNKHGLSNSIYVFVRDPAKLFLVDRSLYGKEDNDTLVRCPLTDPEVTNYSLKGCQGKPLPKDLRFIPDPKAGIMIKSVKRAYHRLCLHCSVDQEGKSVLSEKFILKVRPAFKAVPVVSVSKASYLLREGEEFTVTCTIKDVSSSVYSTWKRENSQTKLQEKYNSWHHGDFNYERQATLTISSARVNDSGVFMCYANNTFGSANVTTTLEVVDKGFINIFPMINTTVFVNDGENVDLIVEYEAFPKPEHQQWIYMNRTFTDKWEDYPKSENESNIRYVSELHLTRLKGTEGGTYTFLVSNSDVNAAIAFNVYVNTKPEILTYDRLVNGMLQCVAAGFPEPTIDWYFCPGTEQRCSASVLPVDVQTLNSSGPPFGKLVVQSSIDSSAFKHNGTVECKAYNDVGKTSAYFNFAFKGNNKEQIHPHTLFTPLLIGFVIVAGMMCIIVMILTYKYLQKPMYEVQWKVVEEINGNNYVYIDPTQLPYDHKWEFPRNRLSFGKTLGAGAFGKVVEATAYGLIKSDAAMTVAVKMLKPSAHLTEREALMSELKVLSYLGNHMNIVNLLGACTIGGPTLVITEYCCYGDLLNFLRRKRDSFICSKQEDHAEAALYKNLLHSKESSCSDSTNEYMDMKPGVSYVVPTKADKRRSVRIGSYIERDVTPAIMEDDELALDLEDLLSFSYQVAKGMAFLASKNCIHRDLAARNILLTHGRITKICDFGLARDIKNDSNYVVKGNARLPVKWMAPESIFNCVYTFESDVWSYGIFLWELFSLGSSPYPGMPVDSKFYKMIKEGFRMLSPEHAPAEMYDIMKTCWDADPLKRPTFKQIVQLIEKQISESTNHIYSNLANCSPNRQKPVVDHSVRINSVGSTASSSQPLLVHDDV
Chain of UniProt P78356 (whole entry, looked up): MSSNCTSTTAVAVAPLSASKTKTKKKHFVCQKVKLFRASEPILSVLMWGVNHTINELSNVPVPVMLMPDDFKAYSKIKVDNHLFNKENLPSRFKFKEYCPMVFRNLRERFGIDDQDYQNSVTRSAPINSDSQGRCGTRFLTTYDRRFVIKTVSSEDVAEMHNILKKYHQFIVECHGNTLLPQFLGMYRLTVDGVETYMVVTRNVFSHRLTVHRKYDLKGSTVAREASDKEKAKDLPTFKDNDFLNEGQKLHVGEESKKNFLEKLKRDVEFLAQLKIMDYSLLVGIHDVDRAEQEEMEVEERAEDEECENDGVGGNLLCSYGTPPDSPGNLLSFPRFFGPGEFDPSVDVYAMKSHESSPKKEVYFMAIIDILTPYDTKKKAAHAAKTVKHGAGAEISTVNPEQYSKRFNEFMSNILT
Chain of UniProt P11309 (whole entry, looked up): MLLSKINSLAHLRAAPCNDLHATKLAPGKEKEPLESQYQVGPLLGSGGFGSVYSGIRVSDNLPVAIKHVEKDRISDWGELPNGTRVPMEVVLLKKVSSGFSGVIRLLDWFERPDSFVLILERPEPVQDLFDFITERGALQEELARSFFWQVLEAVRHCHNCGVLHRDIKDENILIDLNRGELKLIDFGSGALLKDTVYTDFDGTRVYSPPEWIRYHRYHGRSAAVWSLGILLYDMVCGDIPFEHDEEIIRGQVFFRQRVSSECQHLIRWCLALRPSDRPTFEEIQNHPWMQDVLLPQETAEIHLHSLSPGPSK
Chain of UniProt P0C264 (whole entry, looked up): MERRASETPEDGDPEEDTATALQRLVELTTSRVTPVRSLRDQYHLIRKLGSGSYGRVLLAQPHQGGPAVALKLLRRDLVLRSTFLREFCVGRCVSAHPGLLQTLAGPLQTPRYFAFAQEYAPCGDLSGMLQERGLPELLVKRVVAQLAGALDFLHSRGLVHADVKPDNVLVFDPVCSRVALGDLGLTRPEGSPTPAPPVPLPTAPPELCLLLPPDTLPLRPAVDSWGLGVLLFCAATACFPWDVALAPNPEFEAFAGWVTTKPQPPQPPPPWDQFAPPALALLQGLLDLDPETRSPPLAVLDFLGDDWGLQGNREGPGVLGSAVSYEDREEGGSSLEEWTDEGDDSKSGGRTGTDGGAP
Chain of UniProt P42336 (whole entry, unmodified, looked up): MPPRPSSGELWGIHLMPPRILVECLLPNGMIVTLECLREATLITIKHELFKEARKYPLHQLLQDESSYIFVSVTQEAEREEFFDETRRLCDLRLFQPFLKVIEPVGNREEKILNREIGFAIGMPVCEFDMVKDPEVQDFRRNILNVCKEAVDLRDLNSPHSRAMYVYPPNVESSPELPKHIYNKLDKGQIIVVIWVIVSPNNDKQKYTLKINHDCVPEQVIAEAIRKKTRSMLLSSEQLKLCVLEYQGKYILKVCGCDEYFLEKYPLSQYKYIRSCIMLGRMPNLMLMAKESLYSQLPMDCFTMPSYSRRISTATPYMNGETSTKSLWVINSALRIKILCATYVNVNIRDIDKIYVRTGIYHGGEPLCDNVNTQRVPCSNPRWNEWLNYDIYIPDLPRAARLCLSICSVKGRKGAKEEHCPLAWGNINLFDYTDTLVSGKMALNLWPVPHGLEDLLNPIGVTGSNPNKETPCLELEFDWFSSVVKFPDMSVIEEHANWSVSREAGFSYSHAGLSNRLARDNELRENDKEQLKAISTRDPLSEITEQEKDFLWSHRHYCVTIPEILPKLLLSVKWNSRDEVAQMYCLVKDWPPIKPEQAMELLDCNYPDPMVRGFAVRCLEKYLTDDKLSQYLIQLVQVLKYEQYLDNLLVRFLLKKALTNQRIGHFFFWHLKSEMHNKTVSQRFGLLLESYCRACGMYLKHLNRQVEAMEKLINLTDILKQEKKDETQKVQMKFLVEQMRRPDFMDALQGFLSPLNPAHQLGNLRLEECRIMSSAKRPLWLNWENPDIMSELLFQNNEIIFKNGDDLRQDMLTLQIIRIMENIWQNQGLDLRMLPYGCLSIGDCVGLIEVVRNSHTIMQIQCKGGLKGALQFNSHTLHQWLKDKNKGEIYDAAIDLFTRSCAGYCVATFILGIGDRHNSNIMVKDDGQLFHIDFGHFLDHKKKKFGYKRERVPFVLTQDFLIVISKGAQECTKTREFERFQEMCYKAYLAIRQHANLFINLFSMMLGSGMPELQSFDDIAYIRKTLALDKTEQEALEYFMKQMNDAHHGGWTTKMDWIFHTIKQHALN
Chain of UniProt P53779 (whole entry, looked up): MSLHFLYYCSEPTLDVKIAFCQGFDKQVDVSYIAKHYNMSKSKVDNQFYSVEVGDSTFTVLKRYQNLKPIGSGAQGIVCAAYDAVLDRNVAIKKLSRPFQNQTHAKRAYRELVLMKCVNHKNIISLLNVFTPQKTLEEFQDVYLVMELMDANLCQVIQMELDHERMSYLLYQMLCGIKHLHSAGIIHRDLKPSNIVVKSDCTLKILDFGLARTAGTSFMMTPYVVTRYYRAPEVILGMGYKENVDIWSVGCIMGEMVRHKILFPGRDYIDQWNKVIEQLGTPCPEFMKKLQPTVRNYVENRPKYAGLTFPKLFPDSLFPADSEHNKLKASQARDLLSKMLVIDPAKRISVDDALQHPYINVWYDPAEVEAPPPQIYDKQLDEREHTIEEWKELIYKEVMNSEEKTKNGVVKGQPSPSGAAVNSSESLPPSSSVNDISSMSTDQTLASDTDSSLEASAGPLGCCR
Chain of UniProt Q9UKI8 (whole entry, looked up): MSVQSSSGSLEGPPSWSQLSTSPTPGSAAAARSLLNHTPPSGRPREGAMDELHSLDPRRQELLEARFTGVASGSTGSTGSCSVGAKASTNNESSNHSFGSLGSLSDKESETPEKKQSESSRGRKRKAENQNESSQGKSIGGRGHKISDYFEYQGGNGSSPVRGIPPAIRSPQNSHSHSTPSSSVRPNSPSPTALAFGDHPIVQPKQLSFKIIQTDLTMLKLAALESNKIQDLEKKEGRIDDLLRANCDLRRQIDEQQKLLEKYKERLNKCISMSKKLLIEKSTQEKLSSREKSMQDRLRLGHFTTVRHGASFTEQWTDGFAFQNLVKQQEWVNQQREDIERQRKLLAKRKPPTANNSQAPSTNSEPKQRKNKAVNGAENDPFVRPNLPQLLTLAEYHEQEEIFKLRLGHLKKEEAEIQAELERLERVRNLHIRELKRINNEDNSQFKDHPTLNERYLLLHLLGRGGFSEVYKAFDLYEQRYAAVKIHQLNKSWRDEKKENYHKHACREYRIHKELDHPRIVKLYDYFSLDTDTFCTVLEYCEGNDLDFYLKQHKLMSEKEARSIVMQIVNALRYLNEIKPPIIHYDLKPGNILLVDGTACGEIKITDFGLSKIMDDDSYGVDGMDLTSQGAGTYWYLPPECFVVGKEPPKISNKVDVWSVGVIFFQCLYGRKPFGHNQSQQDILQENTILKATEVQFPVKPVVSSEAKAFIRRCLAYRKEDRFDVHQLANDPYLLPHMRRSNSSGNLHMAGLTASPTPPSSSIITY

Set 1 — species: human; medium: microsomes or S9; concentration: 2 µM; time: 0.5 h
| Structure (SMILES) | remaining compound [%] |
| --- | --- |
| O=C(Cn1cncn1)c1ccc(-c2ccccc2)cc1 | 26.8 |
| COc1ccc(-c2ccnc3cc(C4CCCCC4)nn23)cc1OC1CCCC1 | 95 |
| COc1cccc(C2CC(c3cccs3)=NN2S(C)(=O)=O)c1OC (stereo not drawn) | 0.201 |
| Nc1ccc(C(=O)NC2CCc3ccccc32)cc1 (stereo not drawn) | 70.2 |
| CC(C)(C)NS(=O)(=O)c1ccc(NC(=O)C2c3ccccc3Oc3ccccc32)cc1 | > 100 |

Set 2 — cell line: mouse MPNST tumor cells; technique: high-content immunofluorescence imaging; item: nuclear SOX9; concentration: 10 µM; time: 12 h; setting: mean of 2 replicates; baseline: DMSO control; direction: higher = more nuclear SOX9
| Structure (SMILES) | nuclear SOX9 intensity |
| --- | --- |
| Oc1cccc(-c2nc(N3CCOCC3)c3oc4ncccc4c3n2)c1 | 88.4 % of DMSO |
| CCOC(=O)COc1ccc2c(c1)C[C@@H](NC[C@H](O)c1cccc(Cl)c1)CC2 | 103 % of DMSO |
| O=C(Nc1cccc2c(=O)cc(-c3nn[nH]n3)oc12)c1ccc(OCCCCc2ccccc2)cc1 | 106 % of DMSO |
| O=c1ncn2nc(Sc3ccc(F)cc3F)ccc2c1-c1c(Cl)cccc1Cl | 96 % of DMSO |
| CC(=O)NS(=O)(=O)c1ccc(N)cc1 | 107 % of DMSO |
| O=S(=O)(NCCCCCCc1ccccc1)c1cccc2c(Cl)cccc12 | 102 % of DMSO |
| CCCc1nc2c(C)cc(-c3nc4ccccc4n3C)cc2n1Cc1ccc(-c2ccccc2C(=O)O)cc1 | 86.6 % of DMSO and 90.7 % of DMSO |
| COc1cc2nc(N3CCN(C(=O)C4COc5ccccc5O4)CC3)nc(N)c2cc1OC (stereo not drawn) | 169 % of DMSO |

Set 3 — read-out: cell-free assay; technique: competition with immobilised ligand; concentration: 1 µM
SMILES: C[C@H](c1cccc(C#N)c1)n1cc(Cl)cc(C(N)=O)c1=N
| target | remaining binding [%] |
| --- | --- |
| Serine/threonine-protein kinase tousled-like 1 (TLK1, Homo sapiens, UniProt Q9UKI8) | 94 |
| Microtubule-associated serine/threonine-protein kinase 1 (MAST1, Homo sapiens, UniProt Q9Y2H9) | 96 |
| Mast/stem cell growth factor receptor Kit (KIT, Homo sapiens, UniProt P10721, L576P) | 93 |
| Mast/stem cell growth factor receptor Kit, autoinhibited (KIT, Homo sapiens, UniProt P10721) | 98 |
| Phosphatidylinositol 5-phosphate 4-kinase type-2 beta (PIP4K2B, Homo sapiens, UniProt P78356) | 52 |
| cAMP-dependent protein kinase catalytic subunit beta (PRKACB, Homo sapiens, UniProt P22694) | 98 |
| Uncharacterized serine/threonine-protein kinase SBK3 (SBK3, Homo sapiens, UniProt P0C264) | 95 |
| Phosphatidylinositol 4,5-bisphosphate 3-kinase catalytic subunit alpha isoform (PIK3CA, Homo sapiens, UniProt P42336, E545A) | 100 |
| Mitogen-activated protein kinase 10 (MAPK10, Homo sapiens, UniProt P53779) | 100 |
| Proto-oncogene tyrosine-protein kinase receptor Ret (RET, Homo sapiens, UniProt P07949, V804L) | 87 |
| Serine/threonine-protein kinase pim-1 (PIM1, Homo sapiens, UniProt P11309) | 100 |
| Epidermal growth factor receptor (EGFR, Homo sapiens, UniProt P00533, G719S) | 100 |

Set 4 — read-out: enzyme activity; action: inhibitor; concentration: 0.5 µM; baseline: control
Target: 3-phosphoinositide-dependent protein kinase 1 (PDPK1, Homo sapiens, UniProt O15530)
Chain of UniProt O15530 (whole entry, looked up): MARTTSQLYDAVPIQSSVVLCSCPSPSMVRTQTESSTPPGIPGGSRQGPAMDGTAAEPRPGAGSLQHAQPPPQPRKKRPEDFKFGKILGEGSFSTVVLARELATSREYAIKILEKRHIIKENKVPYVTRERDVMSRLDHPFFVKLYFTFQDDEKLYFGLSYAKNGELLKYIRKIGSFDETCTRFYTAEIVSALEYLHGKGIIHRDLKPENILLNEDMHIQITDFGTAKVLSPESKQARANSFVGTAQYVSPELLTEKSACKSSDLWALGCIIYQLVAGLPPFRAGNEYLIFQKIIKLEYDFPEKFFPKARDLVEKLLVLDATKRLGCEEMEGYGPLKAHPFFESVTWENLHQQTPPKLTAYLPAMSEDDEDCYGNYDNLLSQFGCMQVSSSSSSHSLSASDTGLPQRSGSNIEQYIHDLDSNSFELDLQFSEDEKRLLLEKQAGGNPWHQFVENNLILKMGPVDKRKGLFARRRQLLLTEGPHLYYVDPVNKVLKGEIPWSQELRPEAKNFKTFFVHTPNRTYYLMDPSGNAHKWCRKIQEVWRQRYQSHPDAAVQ
| Structure (SMILES) | remaining activity [%] |
| --- | --- |
| c1ccc(-c2cnc(Nc3ccc(OCCN4CCCC4)cc3)s2)cc1 | 84.9 |
| c1ccc(-c2[nH]ncc2-c2ccnc3ccccc23)nc1 | 93.8 |
| C[C@@H]1CCN(C(=O)CC#N)C[C@@H]1N(C)c1ncnc2[nH]ccc12 | 94.1 |
| CCN(CC)C(=O)c1ccc(Nc2nc(OCC3CCCCC3)c3[nH]cnc3n2)cc1 | 69.1 |
| O=C1C(Cl)=C(N2C(=O)CCC2=O)C(=O)c2ccccc21 | 100 |
| O=C1c2ccccc2-c2n[nH]c3cccc1c23 | 99 |
| COc1cc2ncnc(Nc3cccc(Cl)c3)c2cc1OC | 81.9 |
| CN([C@@H](Cc1ccc(OS(=O)(=O)c2cccc3cnccc23)cc1)C(=O)N1CCN(c2ccccc2)CC1)S(=O)(=O)c1cccc2cnccc12 | 96.4 |
| O=c1cc(-c2cccc3c2Sc2ccccc2S3)oc(N2CCOCC2)c1 | 104 |
| COc1cc2ncnc(Nc3ccc(O)c(Br)c3)c2cc1OC | 96.6 |
| N#C/C(=C\c1ccc(O)c(O)c1)C(=O)NCc1ccccc1 | 74 |
| Cc1cn(-c2cc(NC(=O)c3ccc(C)c(Nc4nccc(-c5cccnc5)n4)c3)cc(C(F)(F)F)c2)cn1 | 84.6 |
| CCN(CC)CCNC(=O)c1c(C)[nH]c(/C=C2\C(=O)Nc3ccc(Cl)cc32)c1C | 101 |
| CCOc1nc(NC(=O)Cc2cc(OC)ccc2OC)cc(N)c1C#N | 94.6 |
| Cc1nc2cc3nc(-c4cccs4)cnc3cc2n1C | 106 |
| CN(C)C[C@H]1CCn2c(c(C3=C(c4cn(C)c5ccccc45)C(=O)NC3=O)c3ccccc32)C1 | 97 |
| N#Cc1c(NC(=O)c2cccc3ccccc23)sc2c1CCCC2 | 92.1 |
| COc1cc2c(cc1OC)-c1[nH]nc(Nc3cccc(F)c3)c1C2 | 95.9 |
| Cc1cc2ncc(-c3ccccc3)nc2cc1C | 103 |
| Nc1cccc(-c2cc3c(Oc4cccc(O)c4)ncnc3[nH]2)c1 | 86.8 |

Some of these lines once more (set 4):
| Structure (SMILES) | remaining activity [%] |
| --- | --- |
| Cc1nc2cc3nc(-c4cccs4)cnc3cc2n1C | 106 |
| CN(C)C[C@H]1CCn2c(c(C3=C(c4cn(C)c5ccccc45)C(=O)NC3=O)c3ccccc32)C1 | 97 |
| N#Cc1c(NC(=O)c2cccc3ccccc23)sc2c1CCCC2 | 92.1 |
| COc1cc2c(cc1OC)-c1[nH]nc(Nc3cccc(F)c3)c1C2 | 95.9 |
